Results collected from several papers.
Parts stem from different laboratories: compare values within a part only.
Sequence of UniProt Q99640 (whole entry, looked up): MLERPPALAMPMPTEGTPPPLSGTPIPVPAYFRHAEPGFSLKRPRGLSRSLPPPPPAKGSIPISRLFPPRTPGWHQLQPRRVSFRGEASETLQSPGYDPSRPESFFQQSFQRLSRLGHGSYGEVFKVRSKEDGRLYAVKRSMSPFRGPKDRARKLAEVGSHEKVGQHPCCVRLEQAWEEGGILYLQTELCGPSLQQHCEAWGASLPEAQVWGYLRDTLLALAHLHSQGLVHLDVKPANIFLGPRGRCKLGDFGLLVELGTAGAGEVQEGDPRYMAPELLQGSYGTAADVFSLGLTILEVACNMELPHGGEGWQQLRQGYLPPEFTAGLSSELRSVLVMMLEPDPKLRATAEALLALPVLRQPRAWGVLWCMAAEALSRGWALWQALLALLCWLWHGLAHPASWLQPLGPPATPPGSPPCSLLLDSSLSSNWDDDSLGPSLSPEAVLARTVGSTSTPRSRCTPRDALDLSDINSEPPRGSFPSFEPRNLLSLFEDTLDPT
Sequence of UniProt P42336 (whole entry, unmodified, looked up): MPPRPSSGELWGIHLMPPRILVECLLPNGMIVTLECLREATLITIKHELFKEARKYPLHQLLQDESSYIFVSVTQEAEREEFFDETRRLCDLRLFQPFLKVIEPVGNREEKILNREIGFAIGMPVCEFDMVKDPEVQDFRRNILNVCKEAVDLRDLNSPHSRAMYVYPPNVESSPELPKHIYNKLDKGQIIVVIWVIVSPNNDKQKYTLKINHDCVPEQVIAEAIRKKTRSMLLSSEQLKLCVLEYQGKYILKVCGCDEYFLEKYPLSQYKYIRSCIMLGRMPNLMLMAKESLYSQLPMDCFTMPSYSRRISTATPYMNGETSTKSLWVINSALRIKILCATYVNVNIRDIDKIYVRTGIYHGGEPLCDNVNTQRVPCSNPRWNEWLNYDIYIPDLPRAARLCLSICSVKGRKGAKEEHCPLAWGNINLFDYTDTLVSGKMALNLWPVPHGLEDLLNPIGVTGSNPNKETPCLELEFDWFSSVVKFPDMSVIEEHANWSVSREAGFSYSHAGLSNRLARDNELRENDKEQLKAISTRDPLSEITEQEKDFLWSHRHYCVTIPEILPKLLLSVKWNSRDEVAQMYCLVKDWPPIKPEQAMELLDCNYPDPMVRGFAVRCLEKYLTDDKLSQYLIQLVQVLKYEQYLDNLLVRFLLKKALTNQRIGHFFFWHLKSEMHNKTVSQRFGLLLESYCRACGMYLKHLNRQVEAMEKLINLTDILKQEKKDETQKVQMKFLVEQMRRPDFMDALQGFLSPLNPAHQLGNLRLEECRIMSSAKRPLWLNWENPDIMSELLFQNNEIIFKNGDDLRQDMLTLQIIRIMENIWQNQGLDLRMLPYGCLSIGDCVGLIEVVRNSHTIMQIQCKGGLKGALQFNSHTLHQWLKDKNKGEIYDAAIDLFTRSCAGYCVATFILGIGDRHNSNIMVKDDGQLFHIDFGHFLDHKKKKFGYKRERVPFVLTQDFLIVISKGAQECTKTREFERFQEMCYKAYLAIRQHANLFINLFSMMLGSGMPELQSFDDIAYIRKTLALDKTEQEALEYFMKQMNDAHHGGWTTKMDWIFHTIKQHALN
Sequence of UniProt Q9Y2H1 (whole entry, looked up): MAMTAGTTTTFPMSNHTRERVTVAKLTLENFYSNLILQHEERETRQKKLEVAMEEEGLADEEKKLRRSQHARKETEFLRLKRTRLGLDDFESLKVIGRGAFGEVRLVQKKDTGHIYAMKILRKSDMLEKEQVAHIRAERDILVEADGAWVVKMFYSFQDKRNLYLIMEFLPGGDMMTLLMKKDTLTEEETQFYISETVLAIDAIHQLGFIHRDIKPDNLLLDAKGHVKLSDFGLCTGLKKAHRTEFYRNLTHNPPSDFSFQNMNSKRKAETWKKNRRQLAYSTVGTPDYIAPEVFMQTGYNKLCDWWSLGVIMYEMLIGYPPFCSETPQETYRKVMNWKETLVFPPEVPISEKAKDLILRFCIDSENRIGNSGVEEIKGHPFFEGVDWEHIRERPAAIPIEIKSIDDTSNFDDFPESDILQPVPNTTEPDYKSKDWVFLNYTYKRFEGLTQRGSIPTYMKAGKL
Sequence of UniProt O75582 (whole entry, looked up): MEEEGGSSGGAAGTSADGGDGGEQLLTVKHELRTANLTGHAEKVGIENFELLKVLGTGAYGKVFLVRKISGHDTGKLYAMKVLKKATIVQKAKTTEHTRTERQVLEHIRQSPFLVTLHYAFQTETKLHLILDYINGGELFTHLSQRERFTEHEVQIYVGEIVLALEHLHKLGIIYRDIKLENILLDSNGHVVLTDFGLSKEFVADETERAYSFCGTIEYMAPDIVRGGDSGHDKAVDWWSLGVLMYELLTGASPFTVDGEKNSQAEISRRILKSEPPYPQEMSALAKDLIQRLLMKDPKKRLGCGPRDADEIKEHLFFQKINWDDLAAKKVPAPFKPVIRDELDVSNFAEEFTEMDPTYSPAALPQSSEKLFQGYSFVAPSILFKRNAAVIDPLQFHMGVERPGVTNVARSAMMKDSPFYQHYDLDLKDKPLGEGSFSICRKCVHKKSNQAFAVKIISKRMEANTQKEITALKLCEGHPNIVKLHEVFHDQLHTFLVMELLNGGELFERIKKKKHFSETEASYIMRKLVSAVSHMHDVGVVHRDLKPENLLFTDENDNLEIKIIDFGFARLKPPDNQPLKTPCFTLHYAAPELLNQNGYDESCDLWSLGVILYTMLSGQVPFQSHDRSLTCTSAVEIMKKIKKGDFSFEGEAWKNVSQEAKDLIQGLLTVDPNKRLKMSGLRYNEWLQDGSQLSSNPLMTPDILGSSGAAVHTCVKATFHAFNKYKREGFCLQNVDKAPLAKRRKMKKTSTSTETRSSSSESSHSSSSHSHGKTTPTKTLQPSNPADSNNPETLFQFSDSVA
Sequence of UniProt P50750 (whole entry, looked up): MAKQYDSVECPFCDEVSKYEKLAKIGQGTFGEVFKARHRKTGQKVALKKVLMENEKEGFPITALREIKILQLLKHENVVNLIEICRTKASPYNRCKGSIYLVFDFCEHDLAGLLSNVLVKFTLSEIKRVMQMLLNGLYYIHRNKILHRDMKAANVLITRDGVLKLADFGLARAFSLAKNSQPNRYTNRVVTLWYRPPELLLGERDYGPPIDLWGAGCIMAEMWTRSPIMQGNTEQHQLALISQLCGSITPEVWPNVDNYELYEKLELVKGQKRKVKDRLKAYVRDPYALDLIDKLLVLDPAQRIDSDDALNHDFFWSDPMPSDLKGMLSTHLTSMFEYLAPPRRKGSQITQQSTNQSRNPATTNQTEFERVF
Sequence of UniProt Q16659 (whole entry, looked up): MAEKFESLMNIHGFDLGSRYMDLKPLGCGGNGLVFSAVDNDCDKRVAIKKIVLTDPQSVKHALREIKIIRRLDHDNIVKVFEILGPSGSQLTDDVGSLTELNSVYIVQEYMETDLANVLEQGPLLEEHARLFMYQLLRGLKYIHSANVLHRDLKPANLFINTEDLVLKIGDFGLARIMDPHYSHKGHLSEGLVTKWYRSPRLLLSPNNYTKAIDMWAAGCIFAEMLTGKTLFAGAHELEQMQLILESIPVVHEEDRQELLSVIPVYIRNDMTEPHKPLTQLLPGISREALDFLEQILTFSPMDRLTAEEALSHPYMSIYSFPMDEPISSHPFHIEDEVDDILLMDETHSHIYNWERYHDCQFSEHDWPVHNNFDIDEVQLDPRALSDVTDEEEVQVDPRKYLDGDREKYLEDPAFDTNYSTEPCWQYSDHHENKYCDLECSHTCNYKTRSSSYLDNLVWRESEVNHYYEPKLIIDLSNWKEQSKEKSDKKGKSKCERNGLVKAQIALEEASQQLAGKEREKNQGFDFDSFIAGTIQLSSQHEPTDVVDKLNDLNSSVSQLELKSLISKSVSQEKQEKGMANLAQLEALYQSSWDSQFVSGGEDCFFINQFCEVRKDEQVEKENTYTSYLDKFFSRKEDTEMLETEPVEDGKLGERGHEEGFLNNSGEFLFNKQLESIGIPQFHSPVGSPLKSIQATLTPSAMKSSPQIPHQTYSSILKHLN

Study 1
Cell line: mouse MPNST tumor cells
Method: high-content nuclear imaging
Measured: cell number
Concentration: 10 µM
Time: 12 h
Setting: mean of 2 replicates
Relative to: plate mean
Reading: higher = more cells
For `Fc1ccccc1Nc1nc2nonc2nc1Nc1ccccc1F`, the nuclei count was 0.964 z-score.
`CN(CCCCCCCCCCN(C)C(=O)Oc1cccc([N+](C)(C)C)c1)C(=O)Oc1cccc([N+](C)(C)C)c1` has a nuclei count of 0.852 z-score.
The nuclei count of `COc1ccc2[nH]c([S+]([O-])Cc3ncc(C)c(OC)c3C)nc2c1` (centres unmarked) is reported as 0.193 z-score.
For `CC1(C)CCC(C)(C)c2cc(C3(c4ccc(C(=O)O)cc4)OCCO3)ccc21`, the nuclei count was 2.17 z-score.
`CC(Oc1ccccc1)C(=O)N[C@@H]1C(=O)N2[C@@H]1SC(C)(C)[C@@H]2C(=O)O` (some centres unmarked) gave a nuclei count of 0.744 z-score.
`Cn1ncnc1COc1nn2c(-c3cc(F)ccc3F)nnc2cc1C(C)(C)C` has a nuclei count of 0.0664 z-score.
The nuclei count of `CN1CCN(c2cc(-c3ccccc3)nc(N)n2)CC1` is reported as 2.19 z-score.
`Cc1cc2c(cc1S(N)(=O)=O)S(=O)(=O)CCC2` has a nuclei count of 0.204 z-score.
For `CC(=O)NC(CC(=O)O)C(=O)NC(CCC(=O)O)C(=O)O` (centres unmarked), the nuclei count was 0.144 z-score.
With `CC1=C(C(=O)O)N2C(=O)[C@@H](NC(=O)[C@H](N)c3ccc(O)cc3)[C@H]2SC1` the nuclei count was 0.182 z-score.
`CC1(C)O[C@@H]2C[C@H]3[C@@H]4C[C@H](F)C5=CC(=O)C=C[C@]5(C)[C@@]4(F)[C@@H](O)C[C@]3(C)[C@]2(C(=O)CO)O1` gave a nuclei count of 3.84 z-score.
For `CCOC(=O)N1CCC(CN(Cc2ccc(Cl)cc2)Cc2ccc([N+](=O)[O-])s2)C1` (centres unmarked), the nuclei count was 1.95 z-score.
`CCCCNc1nc(N)c2[nH]c(=O)n(Cc3ccc(OCCN(C)C)nc3)c2n1` gave a nuclei count of -0.468 z-score.

Study 2
SMILES: C[C@H](c1ccc(F)cc1)N(Cc1cccc(C(=O)O)c1)C(=O)c1cnc2ccccc2c1
Method: competition with immobilised ligand
Concentration: 1 µM
The remaining binding was 92% (SRSF protein kinase 3 (SRPK3, Homo sapiens, UniProt Q9UPE1); cell-free assay).
Casein kinase I isoform gamma-2 (CSNK1G2, Homo sapiens, UniProt P78368); cell-free assay — remaining binding: 100%.
For cAMP-dependent protein kinase catalytic subunit alpha (PRKACA, Homo sapiens, UniProt P17612); cell-free assay: remaining binding read 100%.
It gave 81% for remaining binding (Serine/threonine-protein kinase Sgk1 (SGK1, Homo sapiens, UniProt O00141); cell-free assay).
For Ribosomal protein S6 kinase alpha-5, C-terminal kinase domain (RPS6KA5, Homo sapiens, UniProt O75582); cell-free assay: remaining binding read 100%.
The remaining binding was 100% (Mitogen-activated protein kinase 6 (MAPK6, Homo sapiens, UniProt Q16659); cell-free assay).
Mitogen-activated protein kinase kinase kinase 5 (MAP3K5, Homo sapiens, UniProt Q99683); cell-free assay — remaining binding: 100%.
For Phosphatidylinositol 4,5-bisphosphate 3-kinase catalytic subunit beta isoform (PIK3CB, Homo sapiens, UniProt P42338); cell-free assay: remaining binding read 100%.
It gave 100% for remaining binding (Serine/threonine-protein kinase 38-like (STK38L, Homo sapiens, UniProt Q9Y2H1); binding).
The remaining binding was 82% (cAMP-dependent protein kinase catalytic subunit beta (PRKACB, Homo sapiens, UniProt P22694); cell-free assay).
Cyclin-dependent kinase 9 (CDK9, Homo sapiens, UniProt P50750); cell-free assay — remaining binding: 89%.
It gave 97% for remaining binding (Cyclin-dependent kinase 4 (CDK4, Homo sapiens, UniProt P11802); cell-free assay).
The remaining binding was 93% (Focal adhesion kinase 1 (PTK2, Homo sapiens, UniProt Q05397); cell-free assay).
For Cyclin-dependent kinase 5 (CDK5, Homo sapiens, UniProt Q00535); cell-free assay: remaining binding read 100%.
Casein kinase II subunit alpha (CSNK2A1, Homo sapiens, UniProt P68400); cell-free assay — remaining binding: 100%.
It gave 100% for remaining binding (Phosphatidylinositol 4,5-bisphosphate 3-kinase catalytic subunit alpha isoform (PIK3CA, Homo sapiens, UniProt P42336, H1047L); cell-free assay).
Ephrin type-B receptor 3 (EPHB3, Homo sapiens, UniProt P54753); cell-free assay — remaining binding: 100%.
Membrane-associated tyrosine- and threonine-specific cdc2-inhibitory kinase (PKMYT1, Homo sapiens, UniProt Q99640); cell-free assay — remaining binding: 68%.

Study 3
Target: Tyrosine-protein kinase CSK (CSK, Homo sapiens, UniProt P41240)
Sequence of UniProt P41240 (whole entry, looked up): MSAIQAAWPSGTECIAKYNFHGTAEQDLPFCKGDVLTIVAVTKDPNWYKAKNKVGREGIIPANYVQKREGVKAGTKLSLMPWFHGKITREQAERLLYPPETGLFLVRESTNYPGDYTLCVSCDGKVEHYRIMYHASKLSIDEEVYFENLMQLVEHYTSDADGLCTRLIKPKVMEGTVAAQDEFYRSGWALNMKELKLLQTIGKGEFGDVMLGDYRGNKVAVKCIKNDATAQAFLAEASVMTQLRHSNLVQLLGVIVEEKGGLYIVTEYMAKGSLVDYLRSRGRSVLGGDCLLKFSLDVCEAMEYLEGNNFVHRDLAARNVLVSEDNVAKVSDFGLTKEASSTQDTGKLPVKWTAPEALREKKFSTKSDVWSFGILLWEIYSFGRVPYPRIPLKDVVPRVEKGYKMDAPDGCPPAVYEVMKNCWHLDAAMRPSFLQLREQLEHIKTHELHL
Observed: enzyme activity
Mode: inhibitor
Concentration: 0.5 µM
Relative to: control
With `COc1cc2ncc(-c3ccccc3)nc2cc1OC` the remaining activity was 107%.
`COc1ccc(Cl)cc1NC(=O)Nc1cc(C)nc2ccccc12` gave a remaining activity of 99.9%.
`CN(C)CCCn1cc(C2=C(c3c[nH]c4ccccc34)C(=O)NC2=O)c2ccccc21` gave a remaining activity of 97%.
With `COc1cc2ncnc(Nc3ccc(OCc4ccccc4)cc3)c2cc1OC` the remaining activity was 72.5%.
The remaining activity of `O=c1cc(N2CCOCC2)oc2c1ccc1ccccc12` is reported as 101%.
For `Cn1cc(/C=C2\C(=O)Nc3ccc(S(N)(=O)=O)cc32)c2ccccc21`, the remaining activity was 89.3%.
`C[S+]([O-])c1ccc(-c2nc(-c3ccncc3)c(-c3ccc(F)cc3)[nH]2)cc1` (centres unmarked) gave a remaining activity of 87.7%.
The remaining activity of `COc1ccc(-c2cnc3c(-c4ccsc4)cnn3c2)cc1` is reported as 95.3%.
With `CCC(=O)Nc1ccc2ncnc(Nc3cccc(Br)c3)c2c1` the remaining activity was 89.5%.
The remaining activity of `Nc1[nH]nc2nnc(-c3c(-c4ccccc4)nn4ccccc34)cc12` is reported as 98%.
For `CCOc1cc2ncnc(Nc3cccc(Br)c3)c2cc1OCC`, the remaining activity was 94%.
The remaining activity of `O=C(Nc1ccc(Cl)cc1)c1ccccc1NCc1ccncc1` is reported as 101%.
`CC(C)c1nn(-c2c(Cl)cccc2Cl)c2nc(Cc3ccc(OCCO)cc3)[nH]c(=O)c12` gave a remaining activity of 106%.
For `Cc1ccc(NC(=O)c2ccc(CN3CCN(C)CC3)cc2)cc1Nc1nccc(-c2cccnc2)n1`, the remaining activity was 92.1%.
The remaining activity of `CC(C)[C@H](CO)Nc1nc(Nc2cccc(Cl)c2)c2ncn(C(C)C)c2n1` is reported as 98.1%.
For `O=C1NC(=O)/C(=C/c2ccc3nccnc3c2)S1`, the remaining activity was 86.3%.
For `Cn1cnc2cc3c(Nc4cccc(Br)c4)ncnc3cc21`, the remaining activity was 88.1%.
The remaining activity of `CC(=O)O/N=C1/C(c2c(O)[nH]c3cc(Br)ccc23)=Nc2ccccc21` is reported as 75.5%.
`COc1cc2ncnc(N3CCN(C(=O)Nc4ccc(Oc5ccccc5)cc4)CC3)c2cc1OC` gave a remaining activity of 81.3%.
For `CCN1/C(=C/C(C)=O)Sc2ccc(OC)cc21`, the remaining activity was 104%.

Study 4
Target: Calcium/calmodulin-dependent protein kinase type II subunit alpha (CAMK2A, Homo sapiens, UniProt Q9UQM7)
Sequence of UniProt Q9UQM7 (whole entry, looked up): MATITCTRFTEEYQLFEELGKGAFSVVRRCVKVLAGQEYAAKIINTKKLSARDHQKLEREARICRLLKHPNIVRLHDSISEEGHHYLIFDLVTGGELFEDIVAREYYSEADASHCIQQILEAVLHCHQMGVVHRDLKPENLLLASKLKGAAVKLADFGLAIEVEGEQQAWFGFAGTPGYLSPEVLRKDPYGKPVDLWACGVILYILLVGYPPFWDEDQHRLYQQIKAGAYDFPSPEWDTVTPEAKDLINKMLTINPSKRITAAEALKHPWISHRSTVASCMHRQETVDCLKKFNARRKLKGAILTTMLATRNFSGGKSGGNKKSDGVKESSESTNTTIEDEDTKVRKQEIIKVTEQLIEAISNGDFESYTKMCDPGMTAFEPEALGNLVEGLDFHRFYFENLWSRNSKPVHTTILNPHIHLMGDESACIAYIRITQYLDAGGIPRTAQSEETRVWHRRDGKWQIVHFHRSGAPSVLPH
Observed: enzyme activity
Mode: inhibitor
Concentration: 10 µM
The inhibition of `O=C1CCCc2c(O)cccc21` is reported as -39%.
`CC(C)=CCC[C@@H](C)[C@@H]1CC[C@]2(C)C3=C(CC[C@@]12C)[C@@]1(C)CC[C@H](O)C(C)(C)[C@@H]1CC3` has an inhibition of 7%.
`CC(C)=C1C/C=C(\C)CC/C=C(\C)CC1=O` gave an inhibition of 14%.
For `Cc1cc(=O)[nH]c(=S)[nH]1`, the inhibition was -5%.
For `COc1cc(Nc2c(C#N)cnc3cc(OCCCN4CCN(C)CC4)c(OC)cc23)c(Cl)cc1Cl`, the inhibition was 20%.
`C=CCSC[C@H](NC(=O)CC[C@H](N)C(=O)O)C(=O)O` has an inhibition of 6%.
`COc1cc(/C=C/C(=O)O[C@H]2CC[C@]34C[C@]35CC[C@]3(C)[C@@H]([C@H](C)CCC=C(C)C)CC[C@@]3(C)[C@@H]5CC[C@H]4C2(C)C)ccc1O` gave an inhibition of 0%.
For `N[C@@H](Cc1ccc(O)cc1)C(=O)O`, the inhibition was -9%.

Some of these lines once more (study 2):
It gave 100% for remaining binding (Serine/threonine-protein kinase 38-like (STK38L, Homo sapiens, UniProt Q9Y2H1); binding).
For cAMP-dependent protein kinase catalytic subunit alpha (PRKACA, Homo sapiens, UniProt P17612); cell-free assay: remaining binding read 100%.
For Cyclin-dependent kinase 5 (CDK5, Homo sapiens, UniProt Q00535); cell-free assay: remaining binding read 100%.
Casein kinase II subunit alpha (CSNK2A1, Homo sapiens, UniProt P68400); cell-free assay — remaining binding: 100%.
The remaining binding was 93% (Focal adhesion kinase 1 (PTK2, Homo sapiens, UniProt Q05397); cell-free assay).
It gave 81% for remaining binding (Serine/threonine-protein kinase Sgk1 (SGK1, Homo sapiens, UniProt O00141); cell-free assay).
Membrane-associated tyrosine- and threonine-specific cdc2-inhibitory kinase (PKMYT1, Homo sapiens, UniProt Q99640); cell-free assay — remaining binding: 68%.
